Published values of several laboratories.
A part holds a random share of what one study measured.

Series 1
Target: RNA binding protein fox-1 homolog 2, RRM domain, GST-SBP tag (RBFOX2, Homo sapiens, UniProt O43251-10, residues 100-194)
Method: RNA Bind-n-Seq
Molecule type: RNA
Sample: in vitro
Concentration: 365 nM
Notes: natural RNA segment, single round, ends assumed
Baseline: no-protein control
Direction: higher = stronger binding
Measurement: RBNS enrichment (R)
Residues (chain): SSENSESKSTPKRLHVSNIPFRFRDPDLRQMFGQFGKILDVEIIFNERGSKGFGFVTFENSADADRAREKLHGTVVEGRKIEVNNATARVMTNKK
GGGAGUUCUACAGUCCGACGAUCAAGUUAUCCCACUGGGUUUAAAAGCAUCUUGAAUGUAUAACCCUUCUGUAACCCAGGCUGGUCUUUGCUUUUACUGAACAUCCAAACGUUAUUUAUAUUUUAAUUUUAUGUGGAAUUCUCGGGUGCCAA: 1.06
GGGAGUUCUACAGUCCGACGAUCAUCUCCUGCCUCUGUCACCUCAGUGCAGGGAAACUAUGGCCCCUGUGGUCUUGCUGUCUCUCCCACUGUGCCCUGGCCUGGCUUGUGGCUUCUUCUUUGCCUGUUCCAAAUGGAAUUCUCGGGUGCCAA: 0.665
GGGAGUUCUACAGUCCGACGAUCCCGAGGAACUUACAGGAGGAGCCUAGGUCUGAAGUCAGUGUUAGGGAAGGGCCCAUAGCCACUUCCUCUGCUCCUGAGCAGGGCUGAAGCCGUUUGCAAGGGACUUGCUUUGGAAUUCUCGGGUGCCAA: 0.325
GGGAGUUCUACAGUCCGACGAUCUGUUGAAAGGCUACCAGUUAUAUUUGCUGUUAAUAGUCUAUUUGUAGAUUAGGAUUAAAGUGGGUUUAAUCCAUUUUUAUAGCUGUAUGAAUUUUUCUAAACAGGAACAGUGGAAUUCUCGGGUGCCAA: 0.457
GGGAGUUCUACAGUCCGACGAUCACCUACUUCAUGUGGACCCUUUUUUUCCUUCAGUUUAACUUUUCUGGAGCAGUGUGCUGCGUAGUUCGGCCUGAGUUUGUGCAGCUUGUUAAGACAACUCUUGUGUACGCUGGAAUUCUCGGGUGCCAA: 0.976
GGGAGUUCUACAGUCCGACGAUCCAAUUGGUAUUACAGGGGGGAAAAGUAAAAUUACACUUUACCUGAAAGUGACUUCUUACAGCUAGUGCAUUGUGCUCUUUCCAAGUUCAGCAGCAGUUCUAUCAGUGGUGUGGAAUUCUCGGGUGCCAA: 0.457
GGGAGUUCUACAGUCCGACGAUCCUUAUAAGUGUCAUACGUCACCCUACAGCAAACACGUGACAACCAUCCUGGGCUCUCAUCUGAACCCCUCUUCUACCCACUUCUACUUGGAGGUGUCCUGUCUUUUUAAAUGGAAUUCUCGGGUGCCAA: 0.444
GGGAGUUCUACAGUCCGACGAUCAAUUGAUUGAUACCUCAGUUUAAUUCAGAGAGGUUCGCUAAGUGUUGGAUUCUAGUUGUGGUUUGAAUGCAGCAGUGUACUCUUGAAGUAAGCAGGCAAGGGUCACUGCAUGGAAUUCUCGGGUGCCAA: 2.97
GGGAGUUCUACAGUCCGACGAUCGGAACUUUCUAGACUCCCGCUCAUUCAAUUGAUCUAGGCAUUUGGGCUUGCUACUUGACCAUUCUCGCCCUGUGAAAUGUCCCACACUUUGAAGCAAAUACAAUUCACAGUGGAAUUCUCGGGUGCCAA: 0.391
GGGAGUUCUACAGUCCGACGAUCAACUCUUUCUAGCCCUUUUAGAUUUUGGCACUGUGAAACCCCUGCUGGAAACCUGAGUGACCCUCCCUCCCCACCAAGAGUCCACAGACCUUUCAUCUUUCACGAACUUGUGGAAUUCUCGGGUGCCAA: 0.614
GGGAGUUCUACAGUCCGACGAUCUAUCACACGUGGCCUUGUCUAGACCCAGUCCUGAGCAGGGGAGAGGCUCUUGAGACCUGAUGCCCUCCUACCCACAUGGUUCUCCCACUGCCCUGUCUGCUCUGCUGCUAUGGAAUUCUCGGGUGCCAA: 0.48
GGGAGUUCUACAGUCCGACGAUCUAAAUUGUAUACAUUUUGUUAUAGAAUACUUUUUCCAGUUGAGUAAAUUAUGAAAGGAAGUUAACAUGAAAAGUGUAAGCAGUGGCUUUUUUAAAAUUGAGGAUUAACCCUGGAAUUCUCGGGUGCCAA: 0.542

Series 2
Target: RING finger protein unkempt homolog, zinc fingers 1-6, GST-SBP tag (UNK, Homo sapiens, UniProt Q9C0B0, residues 30-357)
Method: RNA Bind-n-Seq
Molecule type: RNA
Sample: in vitro
Concentration: not given
Notes: RNA with constant flanks, human and mouse sites, ends assumed
Baseline: input RNA pool
Direction: higher = stronger binding
Measurement: bound/input enrichment
Target sequence (chain): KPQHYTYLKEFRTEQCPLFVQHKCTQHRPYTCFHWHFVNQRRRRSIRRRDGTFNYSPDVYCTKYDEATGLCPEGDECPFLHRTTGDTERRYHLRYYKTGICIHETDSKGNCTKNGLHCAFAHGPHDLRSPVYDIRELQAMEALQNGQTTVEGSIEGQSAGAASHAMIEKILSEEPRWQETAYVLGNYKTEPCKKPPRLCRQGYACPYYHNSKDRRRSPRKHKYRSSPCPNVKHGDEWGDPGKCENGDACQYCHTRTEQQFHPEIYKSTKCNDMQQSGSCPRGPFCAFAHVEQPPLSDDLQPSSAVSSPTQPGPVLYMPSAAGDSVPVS
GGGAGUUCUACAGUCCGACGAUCUAGAUUUGAAUACAAAAUCUGAUACAAUAUGUUAAAGAAUUAAGAACCUGAAGAUGAAGAUUUAGAGCAUAUUUACCUGGAUUUUACUUAUUUGCUAGCAAAAUUCCCCCUUGUCACAGACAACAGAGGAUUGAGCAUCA: 1.39 ratio
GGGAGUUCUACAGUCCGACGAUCUUCUAUCGCGCCCUCUUGGCUGCUAGUUGUCGCGCUCUCCAUCUCACCAUGCUGUCUCUAGACUUUCUAGACGAUGUGCGGCGGAUGAACAAGAGGCAGCUGUACUACCAAGUCCUAAAUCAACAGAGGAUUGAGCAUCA: 0.0973 ratio
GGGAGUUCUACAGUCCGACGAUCGCCUCCCCGUCCACCUCUUCUGCUCAUACCCCUUCUCAGAUCGCUUCUCCUCUCCAAGAAGAUACUCUAUCCGAUGUUGCUCCUCCCAGAGAUAUGUCCUUAUAUGCCUCACUCACCUCUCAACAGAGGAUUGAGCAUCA: 1.25 ratio
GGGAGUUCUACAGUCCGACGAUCGAGAGCAAUUUUAACCUUACUCAUUAUGGAACUCAGCAAAUCCCUCCUGCUUACAAAGAUUUAGCUGAGCCAUGGAUUCAGGUGUUUGGAAUGGAACUCGUUGGCUGCUUAUUUUCUAGACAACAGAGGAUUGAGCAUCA: 0.207 ratio
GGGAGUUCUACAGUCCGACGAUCUGUCAGCAGAAACAUUUAAUGUGAAAUAAUUCUGUAUUUCUGAGACAAGAUCAACACAGUAGUUCUUUACAUUGAGCUGAGGUGAAUGUAUACUUAAAAAUACUCUAUUUUCUUUUUAUACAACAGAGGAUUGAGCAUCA: 0.312 ratio
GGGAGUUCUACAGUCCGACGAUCGAUCCAGGCAGUAAAGAUCCAGAAGAAGAUUACCCCAAAUUUGGACUUUUGGAUCAGGACCUUAGUAACAUUGGUCCUGCUUAUGACAACCAAAAACAGAGCAGUGCUGUGUCUACUAGUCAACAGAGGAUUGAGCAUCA: 0.216 ratio
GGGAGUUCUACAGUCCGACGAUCGGCUGCUGAUUGUGUUCUAAGGGUCGGAGUGGGGUCGACGUUUGCUCUACCGGAACAGCUUAGCUCAUUCCUCCCUUUCCAUUACCUGUGGCGCGGAGAGUUGGGGCGGCGGCUGCGUCACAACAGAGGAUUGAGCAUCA: 0.115 ratio
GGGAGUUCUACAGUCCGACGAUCCCUAAUUCUCACUACCUCCGAUUACCUUUUAUUUUGAAUUGUCGCAUCUGCAGCACUGAGUGUUCACACUGUCCAACAGUACUAAGUUGUUGGUGUGGUCACUGCCCUUUCAUUUCCUUUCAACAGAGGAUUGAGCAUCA: 0.338 ratio
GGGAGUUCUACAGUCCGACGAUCCAAGCCAGUCCUGUUGUGAUUUGUCCAUCGAGUGUGUGUGUGUGUGUGUGUGACCAUCAGUUUAGCCCAGAGUGGACAGGGUCCAGGCAUACCCACCCUGGCCCAUGCUCCUCUAGGACACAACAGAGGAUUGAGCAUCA: 0.298 ratio
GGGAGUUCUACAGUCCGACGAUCUUCUACUGCAUCUCAUCUGACACUCCACUGCCAGAUACAGAAAAAACAGAACUCACAGGUGUAAUAGUGAUUGAUAAAGACAAGACAGUUUUCAGUCAAGAUAUCAGAUAUCAGACUCCACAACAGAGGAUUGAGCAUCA: 0.284 ratio
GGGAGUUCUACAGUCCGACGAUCGGGCAAGCAGUGCAGCUAGAAGACGGGACCACUGCAUUUAUCCACCACACCUCGAAAGACAGUUAUGACCAGAGCUCACUUCAGGCCGUUCAGUUAGAAGAUGGGACAACAGCUUAUAUCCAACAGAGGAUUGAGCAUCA: 0.229 ratio

Series 3
Target: Histone acetyltransferase KAT6A, winged helix 1, GST fusion (KAT6A, Homo sapiens, UniProt Q92794, residues 1-85)
Method: protein binding microarray
Molecule type: double-stranded DNA, one strand shown
Sample: in vitro
Concentration: not given
Notes: 8-mer, flanks averaged, mean of 2 arrays, mostly near background
Baseline: not given
Direction: higher = stronger binding
Measurement: E-score
Residues (chain): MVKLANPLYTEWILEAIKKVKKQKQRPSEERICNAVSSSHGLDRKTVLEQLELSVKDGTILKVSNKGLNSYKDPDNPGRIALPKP
CCCAAGTA: -0.11
GCTTTCGA: -0.0916
GATCGGTA: 0.201
ATCACTAC: -0.22
ACTCACCA: -0.325
CGGGTTGC: 0.304
GTCCGATA: 0.141
GGATTATA: -0.0167
AGGTTACT: 0.0712
GCGTCGCA: 0.367
CTCACACA: -0.143
CTCCCCGA: 0.17
CGTACTAA: 0.126
CAAAACGC: 0.08
ATGGCTCG: -0.067
TCGGTCAA: -0.0518
AGCTGCTG: -0.197
ACACTATC: -0.0701

Series 4
Target: Sal-like protein 4, full length isoform A (SALL4, Homo sapiens, UniProt Q9UJQ4, residues 1-1053)
Sequence of UniProt Q9UJQ4 (whole entry, looked up): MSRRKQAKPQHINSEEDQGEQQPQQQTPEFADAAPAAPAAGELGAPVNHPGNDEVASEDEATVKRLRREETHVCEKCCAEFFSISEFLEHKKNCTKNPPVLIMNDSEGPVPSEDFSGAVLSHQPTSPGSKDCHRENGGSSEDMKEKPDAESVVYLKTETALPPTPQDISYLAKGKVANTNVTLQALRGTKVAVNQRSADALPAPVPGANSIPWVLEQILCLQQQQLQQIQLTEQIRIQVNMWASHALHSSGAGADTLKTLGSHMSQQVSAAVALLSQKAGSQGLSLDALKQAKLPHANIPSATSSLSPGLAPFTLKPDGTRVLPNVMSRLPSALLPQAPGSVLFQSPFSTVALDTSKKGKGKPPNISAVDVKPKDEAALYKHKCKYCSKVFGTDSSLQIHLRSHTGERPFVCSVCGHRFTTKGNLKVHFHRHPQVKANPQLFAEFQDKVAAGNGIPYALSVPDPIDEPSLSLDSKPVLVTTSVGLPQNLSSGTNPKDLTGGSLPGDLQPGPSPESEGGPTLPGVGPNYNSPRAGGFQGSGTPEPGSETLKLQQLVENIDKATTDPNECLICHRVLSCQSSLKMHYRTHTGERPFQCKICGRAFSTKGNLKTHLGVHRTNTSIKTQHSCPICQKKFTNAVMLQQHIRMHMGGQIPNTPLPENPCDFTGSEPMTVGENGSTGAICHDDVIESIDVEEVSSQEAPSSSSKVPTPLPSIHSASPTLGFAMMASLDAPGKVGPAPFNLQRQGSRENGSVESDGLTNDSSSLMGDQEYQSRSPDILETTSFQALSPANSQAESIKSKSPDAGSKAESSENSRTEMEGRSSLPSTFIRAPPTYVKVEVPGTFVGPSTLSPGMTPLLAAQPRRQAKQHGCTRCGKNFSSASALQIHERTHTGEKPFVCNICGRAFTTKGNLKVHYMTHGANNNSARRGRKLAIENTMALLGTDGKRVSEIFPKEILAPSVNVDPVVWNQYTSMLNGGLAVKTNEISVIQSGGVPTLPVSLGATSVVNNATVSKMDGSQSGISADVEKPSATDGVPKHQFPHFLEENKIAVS
Method: universal PBM
Molecule type: double-stranded DNA, one strand shown
Sample: in vitro
Concentration: 600 nM
Notes: 8-mer, flanks averaged, mean of replicates
Direction: higher = stronger binding
Measurement: E-score
CTCGGTAC: -0.22
GCTGAGTA: -0.0458
AGATACTA: 0.111
ATTTTACG: 0.278
AGCCAGAC: -0.23
ACCTTGGA: -0.185
GCGCTAGA: -0.127
GCGAAGTA: 0.0328
GGAGTCCA: -0.162
AACTTTCT: 0.165
CAGATCCA: -0.0163
ACGATTCA: 0.0036
CAATTTTA: 0.346
GTAGAACA: -0.0376
CCACTACG: -0.204
ACATTGCG: 0.0124
GTAGGAGA: -0.081
TATCTACA: 0.234
AGGGCCCG: -0.382
ATACCCAC: 0.094
CGCAACAC: -0.0292
GAGATGGC: -0.0598
ATCCTAGC: -0.024
TAGTATCA: 0.23

Series 5
Target: Protein max, full length (MAX, Homo sapiens, UniProt P61244-2, residues 1-151)
Method: protein-binding microarray
Molecule type: double-stranded DNA, one strand shown
Sample: in vitro
Concentration: not given
Notes: k-mer, scored over probes, only values ≥0.25
Direction: higher = stronger binding
Measurement: E-score
CGTGATAC: 0.343
CCAAGACA: 0.267
CTCGTGAA: 0.327
ACATGATG: 0.315
CATGCCAA: 0.312
ACGTGTGG: 0.437
CCAGGTGC: 0.306
AGCACACG: 0.379
ACGCCGTG: 0.294
CACAAGGA: 0.286
ACGCGACC: 0.309
CGCCCCGC: 0.279
GGACGCAC: 0.319
AACACACG: 0.355
CACATGGC: 0.487
CCGTGACA: 0.279
CGTGGTAG: 0.34
CACACCAC: 0.305
CCGTGGCG: 0.256
CGTGTAGC: 0.354
CCCATGAG: 0.311
CATGCGGG: 0.428
ACATGTGA: 0.476
CATGTTTA: 0.347
AGGCATGG: 0.376

Excerpt of the above (series 3):
GGATTATA: -0.0167
ATCACTAC: -0.22
GATCGGTA: 0.201
CGTACTAA: 0.126
ACTCACCA: -0.325
AGCTGCTG: -0.197
TCGGTCAA: -0.0518
ATGGCTCG: -0.067
CTCACACA: -0.143
GCTTTCGA: -0.0916
ACACTATC: -0.0701
CGGGTTGC: 0.304
GCGTCGCA: 0.367
